# Measured values of several laboratories.
# Parts stem from different laboratories: compare values within a part only. Substitutions count along the parent as printed.

# Set 1
# Target: RNA binding protein fox-1 homolog 2, RRM domain, GST-SBP tag (RBFOX2, Homo sapiens, UniProt O43251-10, residues 100-194)
# Technique: RNA Bind-n-Seq
# Form: RNA
# Medium: in vitro
# Tested at: 365 nM
# Setting: natural RNA segment, single round, ends assumed
# Relative to: no-protein control
# Reading: higher = stronger binding
# Residues (chain): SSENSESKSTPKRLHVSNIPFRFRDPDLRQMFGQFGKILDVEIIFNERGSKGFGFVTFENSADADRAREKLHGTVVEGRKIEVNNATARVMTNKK
Strand,RBNS enrichment (R)
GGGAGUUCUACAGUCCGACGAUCGACGAAGGCUCUGCUGGUCCUCCUGUGCUGGGAAUCUCUUUGAUGGCCUCUUGUGAAGCUCAUGAAACUUUAACAAGUGUUUGACCUUACAGCUUCCUCUGGGAGGUCGUUGGAAUUCUCGGGUGCCAA,0.35
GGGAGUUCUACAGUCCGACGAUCAGAAGGUUUCUCUGAGUCACUCACCAGGCCCUACAAGUCCGCUUUCUUGCAGGCUGCCUCUUUUAUAUUGGGUCUCUUGGCCCAACUGCUUCCUUCUUGUUAAUAAGGAGUGGAAUUCUCGGGUGCCAA,0.258
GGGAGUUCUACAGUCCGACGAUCAGAUGGCUUUGGGUGUCUGGUACCACUCCUUCCCUUCCCCCUACCUGGCCGAUUGGUGCUCCUUCUACACUCAUACCUCUACCUCUCACUGGGGCCAGCAGGAGUUGGGAUGGAAUUCUCGGGUGCCAA,0.624
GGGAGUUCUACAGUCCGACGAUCGUCCUAGUGAACCUCACCCCGAGGCCCUGCAUGGGCCAGCCCCUCCAUCUGUACUUGGUCCAACUGCAACUCAUCAUCGGUGACUGGUUAUCACACCAUCGCUGGCCCCUUGGAAUUCUCGGGUGCCAA,0.769
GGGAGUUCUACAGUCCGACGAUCCUAGGCAUUAAUACUACUUUACUAUCUAUACUGUUUAGUUAUUCCUUUCUUUACCCACCUAAACUAUCCAUCUAAUCCAGGAUUCCCUCACUCUUUUUUUUUAGUUACUAUGGAAUUCUCGGGUGCCAA,0.751
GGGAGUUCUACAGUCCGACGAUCUUCUUGCUCCUUCCAUGGCAGGAUGAGAAGGAAGGCCUAAGAGGCUGGCCAGGGGCCUGGUGUAGACACAGUAGAAGACAGUCAACUAUGGGCGCAUUCUGUCUGGAGCUUGGAAUUCUCGGGUGCCAA,0.646
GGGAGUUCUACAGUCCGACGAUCCUUUCCCAAUGCCCUUGCCUGCCCUGGAGCUUCUAGGGCCACCUCUAGCAUCUGGAGACCGAAUAUCCCCAUGCUCAGAAGUAAAGUGACAAUCAGAACCAGGUACAAGCUGGAAUUCUCGGGUGCCAA,0.429
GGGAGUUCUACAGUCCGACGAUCUCUGUCUUUGCACUUAGCUGUUCAAGUAUUGCCUUGGAUUUACAAAAUACAAGGGAUGGGGAAAUCUUCUGGAUUCUGUUUUGUGACUGGAUGACCCUAGCUUCUUUACCUGGAAUUCUCGGGUGCCAA,0.316

# Set 2
# Target: Ras GTPase-activating protein-binding protein 1, RRM domain (G3BP1, Homo sapiens, UniProt Q13283)
# Sequence of UniProt Q13283 (whole entry, looked up): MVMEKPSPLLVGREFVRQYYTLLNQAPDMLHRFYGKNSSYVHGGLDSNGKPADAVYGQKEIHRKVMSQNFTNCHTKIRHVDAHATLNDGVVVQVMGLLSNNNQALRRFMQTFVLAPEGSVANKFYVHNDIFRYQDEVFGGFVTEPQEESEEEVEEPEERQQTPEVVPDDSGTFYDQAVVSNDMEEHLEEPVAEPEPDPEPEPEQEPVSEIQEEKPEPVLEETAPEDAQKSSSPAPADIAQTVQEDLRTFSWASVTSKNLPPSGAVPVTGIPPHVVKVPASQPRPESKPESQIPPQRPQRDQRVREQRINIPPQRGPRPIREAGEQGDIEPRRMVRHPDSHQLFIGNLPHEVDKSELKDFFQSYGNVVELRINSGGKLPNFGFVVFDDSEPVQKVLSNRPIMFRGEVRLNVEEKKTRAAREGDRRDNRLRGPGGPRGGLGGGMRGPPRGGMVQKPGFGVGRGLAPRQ
# Technique: RNA Bind-n-Seq
# Form: RNA
# Medium: in vitro
# Tested at: 1 µM
# Setting: whole 134-nt RNA, ends assumed
# With: 150 mM KCl
# Relative to: input library
# Reading: higher = stronger binding
Strand,log2 enrichment
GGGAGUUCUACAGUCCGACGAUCUAACUUUAGAGGAGGAUCUGAUGGAUAUGGCAGUGGAUGUGGAUUUGGGGAUGGCUAUAAUGGGUAUGGAGGAGGACCUGGAGGUGGCAAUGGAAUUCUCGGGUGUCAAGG,-0.642
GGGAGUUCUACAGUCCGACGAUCUCCUGUGCUACACAUCGUAUGUACCGAAUCGGGGAAAAAAAGGGGAGGGGUUUUUGGGGAAAGUAUUAUGUUACGCCGUUCGGAUCUGCAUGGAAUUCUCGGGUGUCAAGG,0.671
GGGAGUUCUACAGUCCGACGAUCUGGGAGGUGGAUUUUGUUUAUUUUUUUAUCUCAUUUCCAGGGGUGGGAAUUUUUUUUUAAUAUGUGUCAUGAAUAAAGUUGUUUUUGAAAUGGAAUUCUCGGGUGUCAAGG,2.41
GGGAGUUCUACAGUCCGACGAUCCAAGUCCUGUGCUACACAUCGUAUGUACCGAAUCGGGGAAAGGGGAAAGGAAAGGAAAGUAUUAUGUUACGCCGUUCGGAUCUGCACUUCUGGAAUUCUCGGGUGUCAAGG,-0.253
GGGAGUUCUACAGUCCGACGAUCAAGUCCUGUGCUACACAUCGUAUGUACCGAAUCGGGGUGGGGUGGGGUUUUUGGGGAAAGUAUUAUGUUACGCCGUUCGGAUCUGCACUUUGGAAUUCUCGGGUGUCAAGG,0.422

# Set 3
# Target: CCNE1, cyclin fold, Cln2 fusion (human)
# Technique: yeast growth competition, sequencing
# Medium: yeast
# Setting: weak parent motif
# Relative to: not given
# Reading: higher = stronger binding
# Parent: SLBP docking peptide (human); ARYKRKLLINDFG
Variant,normalised enrichment score
ARYKFKLLINDFG [R5F],0.353
ACYKRKLLINDFG [R2C],0.795
AWYKRKLLINDFG [R2W],1.32
ARYKLKLLINDFG [R5L],1.22
ARYKRKLHINDFG [L8H],0.255
PRYKRKLLINDFG [A1P],0.152
ARYKRKLLINRFG [D11R],0.78

# Further values, each from its own experiment
Molecule,target,test,system,conditions,how to read,measurement,result
"PhoQ, residues 284 288 289 292 302 303 GNNTDL","PhoP, residues 12 14 15 18 19 LHSVW (Escherichia coli, UniProt P23836)","Sort-seq, measured: YFP reporter",E. coli,"PhoQ-PhoP variant library, with: 10 µM Mg2+","relative to: high Mg2+ state, higher = stronger signaling",fold induction,1.78

# Some of these lines once more (set 2):
Strand,log2 enrichment
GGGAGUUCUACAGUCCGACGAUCUGGGAGGUGGAUUUUGUUUAUUUUUUUAUCUCAUUUCCAGGGGUGGGAAUUUUUUUUUAAUAUGUGUCAUGAAUAAAGUUGUUUUUGAAAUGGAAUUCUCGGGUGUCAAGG,2.41
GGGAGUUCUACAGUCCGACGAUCAAGUCCUGUGCUACACAUCGUAUGUACCGAAUCGGGGUGGGGUGGGGUUUUUGGGGAAAGUAUUAUGUUACGCCGUUCGGAUCUGCACUUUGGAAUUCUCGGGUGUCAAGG,0.422
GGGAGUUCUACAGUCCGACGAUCUCCUGUGCUACACAUCGUAUGUACCGAAUCGGGGAAAAAAAGGGGAGGGGUUUUUGGGGAAAGUAUUAUGUUACGCCGUUCGGAUCUGCAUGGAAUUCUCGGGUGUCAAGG,0.671
